Measurements of several laboratories.
Protocols differ between the studies behind these lines.
Target: Insulin receptor-related protein (INSRR, Homo sapiens, UniProt P14616)
Chain of UniProt P14616 (whole entry, unmodified, looked up): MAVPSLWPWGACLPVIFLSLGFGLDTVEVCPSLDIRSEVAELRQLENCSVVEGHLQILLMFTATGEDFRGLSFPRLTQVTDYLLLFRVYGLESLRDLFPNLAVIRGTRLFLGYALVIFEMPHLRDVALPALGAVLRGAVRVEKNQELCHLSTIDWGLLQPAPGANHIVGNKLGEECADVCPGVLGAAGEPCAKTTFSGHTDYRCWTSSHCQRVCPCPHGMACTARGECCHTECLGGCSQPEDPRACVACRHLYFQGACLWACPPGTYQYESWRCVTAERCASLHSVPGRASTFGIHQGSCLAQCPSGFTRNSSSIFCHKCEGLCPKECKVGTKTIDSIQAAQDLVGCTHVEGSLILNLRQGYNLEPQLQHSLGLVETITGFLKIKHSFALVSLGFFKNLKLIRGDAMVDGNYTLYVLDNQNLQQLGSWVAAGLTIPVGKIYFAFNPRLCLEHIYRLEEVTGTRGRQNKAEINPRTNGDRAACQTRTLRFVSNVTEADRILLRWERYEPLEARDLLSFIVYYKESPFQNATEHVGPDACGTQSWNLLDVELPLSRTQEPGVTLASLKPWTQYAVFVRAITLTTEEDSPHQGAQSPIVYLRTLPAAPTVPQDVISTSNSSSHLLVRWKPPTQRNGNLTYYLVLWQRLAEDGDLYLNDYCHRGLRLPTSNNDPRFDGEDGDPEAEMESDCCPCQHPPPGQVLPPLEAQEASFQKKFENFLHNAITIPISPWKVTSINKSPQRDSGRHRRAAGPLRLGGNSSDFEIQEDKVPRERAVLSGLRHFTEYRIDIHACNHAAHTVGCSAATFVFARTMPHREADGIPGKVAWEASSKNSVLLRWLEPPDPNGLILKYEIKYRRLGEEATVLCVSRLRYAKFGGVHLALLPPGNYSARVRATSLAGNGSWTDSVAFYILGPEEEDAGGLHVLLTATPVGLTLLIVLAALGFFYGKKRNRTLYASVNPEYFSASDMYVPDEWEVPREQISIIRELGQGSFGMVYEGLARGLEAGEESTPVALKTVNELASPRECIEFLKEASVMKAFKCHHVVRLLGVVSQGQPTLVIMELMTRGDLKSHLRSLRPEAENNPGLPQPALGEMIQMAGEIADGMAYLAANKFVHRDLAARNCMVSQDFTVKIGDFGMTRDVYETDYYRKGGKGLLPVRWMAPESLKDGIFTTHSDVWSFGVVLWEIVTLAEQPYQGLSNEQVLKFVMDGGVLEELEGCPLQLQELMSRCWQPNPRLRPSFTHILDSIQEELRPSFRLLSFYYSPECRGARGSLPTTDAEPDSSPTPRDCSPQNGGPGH

Cc1cccc(-c2ccc3nc(NC(=O)C4CCOCC4)nn3c2)c1 — remaining activity (enzyme activity, Dundee kinase panel; 10 µM): 27%
C=CC(=O)Nc1cccc(-c2cnc3[nH]cc(C(=O)NC(C)(C)C)c3n2)c1 — inhibition (enzyme activity, inhibitor; 0.1 µM): 1%
C=CC(=O)N1CCc2ccc(-n3c(=O)ccc4cnc5ccc(-c6cnn(C)c6)cc5c43)cc21 — remaining binding (KINOMEscan; 1 µM; relative to: DMSO control): 100%
Cc1cccc(O[C@H]2CCC[C@@H](C(C)CNCc3ccncc3)C2)c1 (relative stereo) — inhibition (cell-free assay; 10 µM): 3%
CNC1C[S+]2CC[S+]3CC[S+](C1)[Ru-4]321([N]=C=S)[n]2c3ccc(OC)cc3c3c4c(c5cc(F)c[n+]1c5c32)C(=O)NC4=O (centres unmarked) — remaining binding (KinomeScan; 0.1 µM; relative to: untreated): 100%
O=C(Cc1ccc(OCc2ccccc2)cc1)NC1(C(=O)O)CCN(C(=O)c2ccc(-c3cccc(Cl)c3)cc2)CC1 — activity vs control (enzyme activity, inhibitor; 10 µM): 113%
NC(=O)C[C@H]1CCc2sc3ncnc(O[C@H]4CC[C@H](N5CCOCC5)CC4)c3c21 — inhibition (enzyme activity, inhibitor; 10 µM): 21%
COc1c(OCCCN2CCOCC2)ccc2c1N=C(NC(=O)c1cnc(N)nc1)N1CCN=C21 — remaining activity (kinase activity, inhibitor; 1 µM; relative to: untreated control): 112%
Cc1ccc(-c2c(/C=C(\C#N)C(=O)NC(C)C)n(CCCO)c3ncnc(N)c23)cc1 — remaining binding (cell-free assay, competition with immobilised ligand; 1 µM): 100%
COc1ccc(NC(=O)Nc2ccc3c(c2)C(=O)N(C(C)CO)CC(C)C(CN(C)Cc2ccc4c(c2)OCO4)O3)cc1 (centres unmarked) — remaining activity (kinase activity; 0.03 µM; relative to: control): 104%
COc1cc(Nc2nc(C)cc(-c3cnn4nc(OC)ccc34)n2)cc(C(F)(F)F)c1 — remaining activity (inhibitor; 1 µM; relative to: control): 86%
CNC(=O)C[C@H](Cc1ccc(C#N)cc1)NC(=O)c1cc(-c2ccc(CN[C@H](C)c3ccc(C)cc3)o2)ccc1Cl — activity vs control (enzyme activity, inhibitor; 1 µM): 103%
Nc1ncc(-c2cc(-c3cnn(CC(F)(F)F)c3)ncc2F)nc1C(=O)NC1CNCC(F)C1 (centres unmarked) — remaining activity (enzyme activity; 1 µM; relative to: DMSO control): 97%
Cc1cccc(-c2ccc3nc(NC(=O)C4CCCO4)nn3c2)c1 (centres unmarked) — remaining activity (enzyme activity, Dundee kinase panel; 10 µM): 50%
CNC(=O)C1CCN(c2cc(C)c(F)cc2NC(=O)c2ccc(-c3cc(O)ccc3C)c(C)c2)CC1 — remaining binding (binding, competition with immobilised ligand; 1 µM): 100%
Nc1nc(Nc2ccccc2)sc1C(=O)c1ccccc1 — remaining activity (enzyme activity, inhibitor; 10 µM): 16%
C=CC(=O)N1CCCC(n2c(=O)c3ncccc3n(Cc3ccc(Oc4ccccc4)cc3)c2=O)C1 (centres unmarked) — remaining binding (cell-free assay, competition with immobilised ligand; 1 µM): 100%
